Experimental data pooled from the literature.
Each numbered part is a random draw from the data of one study; scales do not carry over between parts. Several values in a cell are separate wells, animals, samples, runs or records.
Sequence of UniProt P11309 (whole entry, looked up): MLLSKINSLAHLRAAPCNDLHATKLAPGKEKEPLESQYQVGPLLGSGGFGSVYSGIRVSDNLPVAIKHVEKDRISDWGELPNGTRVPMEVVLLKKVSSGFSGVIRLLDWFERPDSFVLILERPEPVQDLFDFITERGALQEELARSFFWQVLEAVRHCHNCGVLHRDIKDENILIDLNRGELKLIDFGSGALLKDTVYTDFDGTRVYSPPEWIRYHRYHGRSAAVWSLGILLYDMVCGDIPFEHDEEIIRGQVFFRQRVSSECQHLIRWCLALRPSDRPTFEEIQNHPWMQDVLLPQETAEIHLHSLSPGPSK
Sequence of UniProt P42336 (whole entry, unmodified, looked up): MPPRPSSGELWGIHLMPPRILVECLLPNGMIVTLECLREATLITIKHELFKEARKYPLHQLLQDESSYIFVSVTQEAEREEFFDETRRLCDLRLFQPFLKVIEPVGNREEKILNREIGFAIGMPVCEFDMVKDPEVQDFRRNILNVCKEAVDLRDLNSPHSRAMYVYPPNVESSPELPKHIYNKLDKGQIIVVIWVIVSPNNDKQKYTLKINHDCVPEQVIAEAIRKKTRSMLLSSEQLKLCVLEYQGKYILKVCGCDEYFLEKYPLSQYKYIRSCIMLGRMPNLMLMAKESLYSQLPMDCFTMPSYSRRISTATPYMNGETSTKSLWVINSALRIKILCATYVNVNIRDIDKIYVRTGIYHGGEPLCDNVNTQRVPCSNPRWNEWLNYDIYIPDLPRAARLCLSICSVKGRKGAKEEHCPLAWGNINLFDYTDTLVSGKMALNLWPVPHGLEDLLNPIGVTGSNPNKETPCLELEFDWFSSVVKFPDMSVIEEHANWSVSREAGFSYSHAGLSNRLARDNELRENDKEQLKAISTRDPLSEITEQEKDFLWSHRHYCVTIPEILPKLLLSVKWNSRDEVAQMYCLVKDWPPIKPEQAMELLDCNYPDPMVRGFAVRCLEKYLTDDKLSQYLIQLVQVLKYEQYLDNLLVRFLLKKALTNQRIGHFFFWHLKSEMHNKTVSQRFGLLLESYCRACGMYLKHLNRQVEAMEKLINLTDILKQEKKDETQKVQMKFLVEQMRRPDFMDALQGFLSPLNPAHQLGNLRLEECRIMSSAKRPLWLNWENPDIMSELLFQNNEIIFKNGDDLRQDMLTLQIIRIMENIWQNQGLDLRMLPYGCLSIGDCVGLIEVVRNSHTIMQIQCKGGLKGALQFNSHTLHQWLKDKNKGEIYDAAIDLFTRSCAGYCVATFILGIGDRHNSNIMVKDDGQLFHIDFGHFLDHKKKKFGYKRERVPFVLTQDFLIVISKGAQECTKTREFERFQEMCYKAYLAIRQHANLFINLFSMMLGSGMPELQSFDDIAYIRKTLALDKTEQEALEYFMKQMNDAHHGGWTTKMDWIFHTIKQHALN
Sequence of UniProt Q13705 (whole entry, looked up): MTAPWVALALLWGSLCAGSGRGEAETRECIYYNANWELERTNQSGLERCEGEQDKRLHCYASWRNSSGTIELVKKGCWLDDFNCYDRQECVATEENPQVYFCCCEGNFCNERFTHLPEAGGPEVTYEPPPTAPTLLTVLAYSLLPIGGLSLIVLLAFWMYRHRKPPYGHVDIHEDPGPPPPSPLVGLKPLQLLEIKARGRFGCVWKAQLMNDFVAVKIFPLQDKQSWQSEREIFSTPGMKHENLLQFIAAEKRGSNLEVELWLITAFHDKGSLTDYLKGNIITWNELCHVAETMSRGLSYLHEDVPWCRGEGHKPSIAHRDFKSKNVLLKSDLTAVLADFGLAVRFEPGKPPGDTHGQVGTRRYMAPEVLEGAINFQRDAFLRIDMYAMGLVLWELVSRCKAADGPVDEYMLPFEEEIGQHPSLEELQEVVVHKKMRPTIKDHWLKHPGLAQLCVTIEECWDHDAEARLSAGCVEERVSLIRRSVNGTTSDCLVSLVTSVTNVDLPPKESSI
Sequence of UniProt P11802 (whole entry, looked up): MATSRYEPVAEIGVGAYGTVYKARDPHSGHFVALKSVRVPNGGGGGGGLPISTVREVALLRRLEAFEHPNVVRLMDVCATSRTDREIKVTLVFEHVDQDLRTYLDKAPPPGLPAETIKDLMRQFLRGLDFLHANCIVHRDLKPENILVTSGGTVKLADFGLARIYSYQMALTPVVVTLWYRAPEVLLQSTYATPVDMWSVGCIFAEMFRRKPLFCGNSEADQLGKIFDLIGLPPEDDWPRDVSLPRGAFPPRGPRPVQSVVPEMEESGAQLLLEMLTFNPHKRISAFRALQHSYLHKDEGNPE
Sequence of UniProt P42679 (whole entry, looked up): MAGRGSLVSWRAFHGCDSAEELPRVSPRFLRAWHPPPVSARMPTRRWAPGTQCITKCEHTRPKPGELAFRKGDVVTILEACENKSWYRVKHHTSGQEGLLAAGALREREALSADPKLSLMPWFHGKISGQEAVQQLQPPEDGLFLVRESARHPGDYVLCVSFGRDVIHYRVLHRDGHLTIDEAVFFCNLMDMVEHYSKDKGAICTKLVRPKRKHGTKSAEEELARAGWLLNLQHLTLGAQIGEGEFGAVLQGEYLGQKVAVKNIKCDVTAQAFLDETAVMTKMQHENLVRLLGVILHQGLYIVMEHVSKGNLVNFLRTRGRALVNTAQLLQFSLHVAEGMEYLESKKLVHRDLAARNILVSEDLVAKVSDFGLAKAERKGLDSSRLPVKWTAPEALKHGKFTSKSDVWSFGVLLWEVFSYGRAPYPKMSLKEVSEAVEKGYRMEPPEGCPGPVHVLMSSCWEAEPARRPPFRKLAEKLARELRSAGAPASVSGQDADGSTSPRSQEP
Sequence of UniProt O15197 (whole entry, looked up): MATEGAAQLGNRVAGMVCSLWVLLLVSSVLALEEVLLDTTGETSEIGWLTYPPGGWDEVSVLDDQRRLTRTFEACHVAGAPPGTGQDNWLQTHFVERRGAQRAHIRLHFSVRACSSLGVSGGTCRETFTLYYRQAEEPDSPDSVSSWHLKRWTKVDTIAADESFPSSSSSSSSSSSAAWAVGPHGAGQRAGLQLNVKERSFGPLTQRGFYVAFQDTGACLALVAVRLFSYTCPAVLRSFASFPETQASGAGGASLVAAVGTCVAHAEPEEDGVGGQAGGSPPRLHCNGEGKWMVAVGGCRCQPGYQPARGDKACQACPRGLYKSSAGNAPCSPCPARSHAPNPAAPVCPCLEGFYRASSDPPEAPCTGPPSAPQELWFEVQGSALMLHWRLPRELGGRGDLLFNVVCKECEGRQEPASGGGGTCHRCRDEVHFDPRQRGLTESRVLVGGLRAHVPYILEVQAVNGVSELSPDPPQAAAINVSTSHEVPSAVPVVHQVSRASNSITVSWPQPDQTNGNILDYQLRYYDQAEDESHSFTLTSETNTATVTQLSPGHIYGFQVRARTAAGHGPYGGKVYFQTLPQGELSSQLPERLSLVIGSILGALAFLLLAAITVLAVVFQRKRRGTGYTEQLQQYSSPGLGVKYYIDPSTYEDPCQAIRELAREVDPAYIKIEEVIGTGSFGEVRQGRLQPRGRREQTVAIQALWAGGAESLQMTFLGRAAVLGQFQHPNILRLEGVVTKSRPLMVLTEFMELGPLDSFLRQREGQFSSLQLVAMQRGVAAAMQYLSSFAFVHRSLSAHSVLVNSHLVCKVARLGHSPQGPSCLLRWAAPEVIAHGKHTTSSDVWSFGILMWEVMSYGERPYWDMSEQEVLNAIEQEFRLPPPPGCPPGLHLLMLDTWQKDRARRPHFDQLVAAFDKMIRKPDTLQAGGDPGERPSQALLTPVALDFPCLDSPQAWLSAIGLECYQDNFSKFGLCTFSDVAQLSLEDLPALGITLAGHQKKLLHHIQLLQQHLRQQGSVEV

Sample 1 — effect on: enzyme activity; mode: inhibitor; concentration: 0.5 µM; relative to: control
Target: Platelet-derived growth factor receptor alpha (PDGFRA, Homo sapiens, UniProt P16234)
Sequence of UniProt P16234 (whole entry, looked up): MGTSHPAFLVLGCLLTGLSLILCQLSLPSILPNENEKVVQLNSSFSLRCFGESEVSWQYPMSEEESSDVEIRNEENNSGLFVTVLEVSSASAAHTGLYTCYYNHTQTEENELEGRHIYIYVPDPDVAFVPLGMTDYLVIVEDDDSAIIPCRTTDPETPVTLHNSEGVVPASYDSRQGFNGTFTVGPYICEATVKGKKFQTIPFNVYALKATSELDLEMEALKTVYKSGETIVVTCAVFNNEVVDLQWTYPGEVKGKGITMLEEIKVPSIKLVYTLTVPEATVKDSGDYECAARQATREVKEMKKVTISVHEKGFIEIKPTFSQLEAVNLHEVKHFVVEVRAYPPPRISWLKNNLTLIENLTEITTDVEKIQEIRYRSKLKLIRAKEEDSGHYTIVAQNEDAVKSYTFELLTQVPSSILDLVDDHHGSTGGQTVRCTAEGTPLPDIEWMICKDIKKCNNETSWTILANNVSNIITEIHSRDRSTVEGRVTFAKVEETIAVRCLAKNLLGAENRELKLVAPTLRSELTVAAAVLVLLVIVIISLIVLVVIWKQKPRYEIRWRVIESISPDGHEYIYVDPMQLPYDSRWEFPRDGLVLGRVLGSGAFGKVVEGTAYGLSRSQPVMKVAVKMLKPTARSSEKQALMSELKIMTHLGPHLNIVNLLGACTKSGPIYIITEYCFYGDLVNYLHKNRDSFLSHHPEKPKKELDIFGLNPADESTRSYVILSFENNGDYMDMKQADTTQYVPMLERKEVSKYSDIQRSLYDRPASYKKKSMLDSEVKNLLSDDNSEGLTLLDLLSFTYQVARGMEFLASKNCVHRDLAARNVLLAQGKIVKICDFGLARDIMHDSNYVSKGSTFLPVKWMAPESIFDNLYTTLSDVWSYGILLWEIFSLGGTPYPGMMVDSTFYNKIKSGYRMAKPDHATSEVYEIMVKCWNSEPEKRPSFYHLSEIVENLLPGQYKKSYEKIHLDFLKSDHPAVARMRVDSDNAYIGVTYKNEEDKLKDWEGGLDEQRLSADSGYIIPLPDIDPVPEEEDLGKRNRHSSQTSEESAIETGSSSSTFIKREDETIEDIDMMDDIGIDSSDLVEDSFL
| SMILES | remaining activity [%] |
| --- | --- |
| COc1cccc(-c2cc(=O)c3ccccc3o2)c1N | 103 |
| O=C1NC(=O)c2c1c1c3ccccc3[nH]c1c1[nH]c3cc(Br)ccc3c21 | 97.6 |
| O=C1Nc2ccc(Br)cc2/C1=C/c1cc2c([nH]1)CCCC2 | 76.2 |
| N#Cc1cnc2cnc(NCc3cccnc3)cc2c1Nc1ccc(F)c(Cl)c1 | 94.3 |
| COc1ccc(COc2ccc(Cc3cnc(N)nc3N)cc2OC)cc1 | 99.4 |
| Cc1ccc(S(=O)(=O)/C=C/C#N)cc1 | 94.2 |
| O=C(c1cc2cc(O)ccc2[nH]1)c1cc2cc(O)ccc2[nH]1 | 65.3 |
| c1ccc(-c2n[nH]c3c2oc2ccccc23)cc1 | 73.7 |
| O=Nc1c(-c2c(O)[nH]c3cc(Br)ccc23)[nH]c2ccccc12 | 68.4 |

Sample 2 — cell line: mouse MPNST tumor cells; method: high-content nuclear imaging; measured: cell number; concentration: 10 µM; time: 12 h; notes: mean of 2 replicates; relative to: plate mean; direction: higher = more cells
| Structure (SMILES) | nuclei count [z-score] |
| --- | --- |
| CCCCCN(C)CCC(O)(P(=O)(O)O)P(=O)(O)O | 0.521 |
| CN(C)CCOC1=Cc2ccccc2Sc2ccc(Cl)cc21 | -4.81 |
| COc1ccc(NS(=O)(=O)c2sc3ccc(Cl)cc3c2C)cc1N1CCNCC1 | 2.88 |
| Cc1onc(-c2ccccc2)c1C(=O)N[C@@H]1C(=O)N2[C@@H]1SC(C)(C)[C@@H]2C(=O)O | 0.0323 |
| CN(C)CCN(Cc1cccs1)c1ccccn1 | 2.66 |
| N#CN=C(NCCCCCCOc1ccc(Cl)cc1)Nc1ccncc1 | 0.922 |

Sample 3 — effect on: cell-free assay; method: competition with immobilised ligand; concentration: 1 µM
SMILES: O=C(NS(=O)(=O)c1ccc(NCC2CCOCC2)c([N+](=O)[O-])c1)c1ccc(N2CCN(Cc3ccc(C(F)(F)F)cc3-c3ccc(Cl)cc3)CC2)cc1Oc1cnc2[nH]ccc2c1
| target | remaining binding [%] |
| --- | --- |
| Serine/threonine-protein kinase pim-1 (PIM1, Homo sapiens, UniProt P11309) | 92 |
| Tyrosine-protein kinase Fes/Fps (FES, Homo sapiens, UniProt P07332) | 100 |
| Phosphatidylinositol 4,5-bisphosphate 3-kinase catalytic subunit alpha isoform (PIK3CA, Homo sapiens, UniProt P42336, E545K) | 100 |
| Cyclin-dependent kinase 11B (CDK11B, Homo sapiens, UniProt P21127) | 97 |
| Megakaryocyte-associated tyrosine-protein kinase (MATK, Homo sapiens, UniProt P42679) | 100 |
| Cyclin-dependent kinase 4 (CDK4, Homo sapiens, UniProt P11802) | 100 |
| Receptor-type tyrosine-protein kinase FLT3 (FLT3, Homo sapiens, UniProt P36888, R834Q) | 80 |
| Ephrin type-B receptor 6 (EPHB6, Homo sapiens, UniProt O15197) | 82 |
| Activin receptor type-2B (ACVR2B, Homo sapiens, UniProt Q13705) | 94 |
| Protein-tyrosine kinase 2-beta (PTK2B, Homo sapiens, UniProt Q14289) | 100 |
| Phosphatidylinositol 4,5-bisphosphate 3-kinase catalytic subunit beta isoform (PIK3CB, Homo sapiens, UniProt P42338) | 100 |
| Serine/threonine-protein kinase 17B (STK17B, Homo sapiens, UniProt O94768) | 100 |
| Ephrin type-A receptor 2 (EPHA2, Homo sapiens, UniProt P29317) | 92 |
| Calcium/calmodulin-dependent protein kinase type 1B (PNCK, Homo sapiens, UniProt Q6P2M8) | 0 |
| cAMP-dependent protein kinase catalytic subunit beta (PRKACB, Homo sapiens, UniProt P22694) | 91 |
| Glycogen synthase kinase-3 alpha (GSK3A, Homo sapiens, UniProt P49840) | 100 |

Sample 4 — method: Incucyte 3D growth; concentration: 30 µM; direction: higher = more growth
SMILES: CC(C)(C(=O)O)[C@H](NC(=O)Cc1cccc(I)c1)c1ccc2oc(=O)[nH]c2c1
| cell line | setting | spheroid area |
| --- | --- | --- |
| MEL-JUSO | 396.52 h | 4.05e+07 a.u. and 3.31e+07 a.u. and 3.48e+07 a.u. and 4.09e+07 a.u. and 7.09e+07 a.u. |
| MEL-JUSO | 444.52 h | 7.68e+07 a.u. and 2.54e+07 a.u. and 3.23e+07 a.u. and 2.85e+07 a.u. and 5.13e+07 a.u. and 2.62e+07 a.u. |
| A375 | 6.52 h | 9.8e+06 a.u. and 9.79e+06 a.u. and 1.07e+07 a.u. and 9.38e+06 a.u. and 7.95e+06 a.u. and 1.02e+07 a.u. |
| A375 | 366.52 h | 1.91e+08 a.u. and 1.63e+08 a.u. and 1.7e+08 a.u. and 1.84e+08 a.u. and 1.72e+08 a.u. |
| IPC-298 | 48 h | 2.66e+07 a.u. and 2.14e+07 a.u. and 2.87e+07 a.u. and 2.84e+07 a.u. and 2.48e+07 a.u. and 3.07e+07 a.u. |
| MEL-JUSO | 186.52 h | 1.61e+07 a.u. and 1.53e+07 a.u. and 2.12e+07 a.u. and 2.03e+07 a.u. and 1.39e+07 a.u. and 1.75e+07 a.u. |

Repeated from above (sample 3):
| target | remaining binding [%] |
| --- | --- |
| Phosphatidylinositol 4,5-bisphosphate 3-kinase catalytic subunit alpha isoform (PIK3CA, Homo sapiens, UniProt P42336, E545K) | 100 |
| Cyclin-dependent kinase 11B (CDK11B, Homo sapiens, UniProt P21127) | 97 |
| Megakaryocyte-associated tyrosine-protein kinase (MATK, Homo sapiens, UniProt P42679) | 100 |
| Cyclin-dependent kinase 4 (CDK4, Homo sapiens, UniProt P11802) | 100 |
